Published values pooled from the literature.
Parts stem from different laboratories: compare values within a part only. Changes are numbered by the printed parent chain.

Block 1 — method: protein-binding microarray; form: double-stranded DNA, one strand shown; medium: in vitro; concentration: 250 nM; setting: 60-bp whole probe; with: salmon DNA 0.4 mg/ml; baseline: random background probes; reading: higher = stronger binding; quantity: log fluorescence; all sequences stand within: GCCTAGCAC … GTCTTGATTCGCTTGACGCTGCTG
Target: Interferon regulatory factor 7, full length, phosphomimetic (IRF7, Homo sapiens, UniProt Q92985, residues 1-503, S101K/S471D/S472D/S475D/S476D/S477D/S483D/S484D/S487D)
Target sequence (chain): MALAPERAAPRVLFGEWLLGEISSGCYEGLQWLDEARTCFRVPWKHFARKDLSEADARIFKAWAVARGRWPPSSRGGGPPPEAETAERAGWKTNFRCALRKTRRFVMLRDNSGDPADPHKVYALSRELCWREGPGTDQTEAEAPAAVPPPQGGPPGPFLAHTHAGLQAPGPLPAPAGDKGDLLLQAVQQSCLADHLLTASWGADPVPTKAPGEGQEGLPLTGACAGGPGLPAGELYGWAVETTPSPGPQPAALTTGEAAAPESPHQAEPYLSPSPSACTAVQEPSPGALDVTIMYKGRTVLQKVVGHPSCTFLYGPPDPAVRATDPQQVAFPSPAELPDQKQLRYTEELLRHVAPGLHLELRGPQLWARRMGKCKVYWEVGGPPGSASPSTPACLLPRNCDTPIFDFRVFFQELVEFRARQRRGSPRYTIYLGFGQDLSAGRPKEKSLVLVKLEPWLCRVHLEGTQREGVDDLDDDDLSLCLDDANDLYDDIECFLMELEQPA
CCAAGGTTCAAGTTTACCCATGTGCTA: 0.676 z-score
TCAACTTTCCATTTCTGACTGTGCTAG: 2.05 z-score
CACGGTATCCTACTGCTGACGTGCTAG: 0.225 z-score
GACGGTTTCGCTATCGGGACGTGCTAG: 8.58 z-score
TGAGAACTGGGGTTTCGATTAGTGCTA: 5.36 z-score
GACGGTATCGACTATCAGGACGTGCTA: -0.474 z-score
TTACATCTCAGTTTCGATTAGTGCTAG: 8.41 z-score
GACGGTTTCGACTTTCGGGCCGTGCTA: 10.3 z-score
TCACATTCCAATTCTTTTACTGTGCTA: 1.44 z-score
GACGATTTCGGGCATCGAGACGTGCTA: 0.101 z-score
GACGGTCTCGGACTCGGGACGTGCTAG: 0.43 z-score
GACGATATCAGTTTCGAGGCGTGCTAG: 2.4 z-score
TGAGATATCAGACTGGATTAGTGCTAG: -0.343 z-score
GAAGATATCAGTTTCGAGACGTGCTAG: 4.62 z-score
GACGGTATCATTCTCCTGACGTGCTAG: 0.173 z-score
TTGGATATCGGGTATCGATTAGTGCTA: 0.426 z-score
GGCCTTGGAGGGGGTGGGTGGTGCTAG: 2.46 z-score
GACGAACTGAGACTGGAGACGTGCTAG: -0.034 z-score
TCAATCTTCAAGACTCATACTGTGCTA: 0.316 z-score

Block 2 — method: RNA Bind-n-Seq; form: RNA; medium: in vitro; concentration: not given; baseline: input RNA pool; reading: higher = stronger binding; quantity: bound/input enrichment
Target: RING finger protein unkempt homolog, zinc fingers 1-6, GST-SBP tag (UNK, Homo sapiens, UniProt Q9C0B0, residues 30-357)
Setting: RNA with constant flanks, human and mouse sites, ends assumed
All sequences stand within: GGGAGUUCUACAGUCCGACGAUC … CAACAGAGGAUUGAGCAUCA
Target sequence (chain): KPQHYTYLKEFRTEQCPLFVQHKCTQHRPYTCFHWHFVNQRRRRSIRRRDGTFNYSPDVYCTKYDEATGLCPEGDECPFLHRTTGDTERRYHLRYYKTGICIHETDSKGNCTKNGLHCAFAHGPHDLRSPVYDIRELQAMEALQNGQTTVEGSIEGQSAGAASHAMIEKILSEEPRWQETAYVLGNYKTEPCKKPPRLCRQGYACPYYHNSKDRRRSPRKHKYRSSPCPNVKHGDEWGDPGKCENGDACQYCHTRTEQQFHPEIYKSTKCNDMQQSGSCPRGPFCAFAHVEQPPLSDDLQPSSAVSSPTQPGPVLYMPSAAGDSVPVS
GCCAAAUACGUCUGGGCAGCCACGGCCGGGGGCGUCUUUCAGAGCAUUACGCCAAUAGAAAUAGAUAUGAUUGUAGGAAAAGACCGGGAAGGUUUCUUUACCAACGGUUUGACUCUUGGC: 0.743 ratio
GCUGAAAAUAAAGUGGACAUUUUAGAAAUGCUACAGAAAGCCAAAGUAGAUUUAAAACCUCUUCUUUCUAGCCUUUCUGCAAAUAAAGAAAAACUUAAGGAGAGCUCACAUUCAGGGGUU: 0.313 ratio
ACGUCAGAUGACCUGACUGUUGUAGAUGCAGCUUCACUAAGACGACAGAUAAUCAAACUAAAUAGACGUCUACAACUUCUGGAAGAGGAGAACAAAGAACGUGCUAAAAGAGAAAUGGUC: 0.173 ratio
GGGCAGUUUGCUUUCCAUGUUGGUCUUCCUGCAAAAUCUGGAGUUGCUGGGGGCAUUCUUUUAGUUGUCCCCAAUGUUAUGGGUAUGAUGUGCUGGUCUCCUCCUCUGGAUAAGAUGGGC: 0.535 ratio
GGUGGUGCCACACGAAUCCCUGCAGUGAAAGAGAAGAUCAGCAAGUUUUUUGGUAAAGAACUCAGCACAACAUUAAAUGCAGAUGAAGCUGUCACUCGAGGCUGUGCUCUGCAGUGUGCA: 0.323 ratio
GGGAUCACUCCGUCGCACCCACCAUGAUGGAAGACGACGGACAGCCCCGGACUCUAUACGUAGGUAACCUCUCCAGAGAUGUGACAGAAGUCCUUAUUCUUCAGUUAUUCAGUCAGAUCG: 0.0549 ratio
GGAUAAUCCAGAGAGGUUAAUCUAUCUUUAUUAUCAUAAAGCAUUGAUGGAGUAGUCACUCUGUAAUUGCCAAUACUGAAUAUGAGAAAUAUUUGGUAAAUUUUGUUUAAUUUUUUGCUA: 0.133 ratio
UAUGAUGGAGAGGAGUAUGAUGUGGAGGCACAUGAACAAGGACAAGGGGACAUCCCUACAUUUUAUACCUAUGAAGAAGGACUAUCCCAUUUAACAGCGGAAGGGCAAGCCACGUUGGAG: 0.581 ratio

Block 3 — target: CCND3, cyclin fold, Cln2 fusion (human); method: yeast growth competition, sequencing; medium: yeast; setting: weak parent motif; baseline: not given; reading: higher = stronger binding; quantity: normalised enrichment score
Parent: SLBP docking peptide (human); ARYKRKLLINDFG
ARYKRKLLINDNG [F12N]: 0.0856
ARYKRKLLLNDFG [I9L]: 0.147
ARYKRKLFINDFG [L8F]: 0.153
ARYKRKLLINDFE [G13E]: 0.186
ARYKGKLLINDFG [R5G]: 0.101
ARYKRKLLIYDFG [N10Y]: 0.128
ARAKRKLLINDFG [Y3A]: 0.207
ARYKRKLLINDEG [F12E]: 0.154
ARYKDKLLINDFG [R5D]: 0.174
ARYKRKLLITDFG [N10T]: 0.164
ARYKRKLLINIFG [D11I]: 0.171
ARYKRKLLTNDFG [I9T]: 0.164
ARYKRKLLCNDFG [I9C]: 0.166
ARYDRKLLINDFG [K4D]: 0.0818
ARYKRKLLINDFP [G13P]: 0.188
ASYKRKLLINDFG [R2S]: 0.047
ARTKRKLLINDFG [Y3T]: 0.117
ARYKRKLLINQFG [D11Q]: 0.259
ARYKQKLLINDFG [R5Q]: 0.0797
ARYKRKLLINDHG [F12H]: 0.0741
ARYKRKLLINWFG [D11W]: 0.0679
ARYKRKLLPNDFG [I9P]: 0.253
YRYKRKLLINDFG [A1Y]: 0.0862
ARYKRKLLINDYG [F12Y]: 0.237
ARYKRKLLIVDFG [N10V]: 0.101

Block 4 — method: DHFR PCA, deep sequencing; medium: yeast; with: (+)-ABA 0 µM; baseline: wild-type fitted maximum; reading: higher = stronger binding; quantity: relative binding score
Target: ABI1, truncated, D143A, DHFR fusion (Arabidopsis thaliana)
Setting: methotrexate growth selection, single substitutions
Parent: PYL1, truncated, DHFR fusion (Arabidopsis thaliana); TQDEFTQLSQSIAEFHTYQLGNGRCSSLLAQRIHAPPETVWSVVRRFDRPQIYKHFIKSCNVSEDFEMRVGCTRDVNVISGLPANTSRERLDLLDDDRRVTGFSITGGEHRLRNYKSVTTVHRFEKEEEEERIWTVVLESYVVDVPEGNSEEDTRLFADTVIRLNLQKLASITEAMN; partner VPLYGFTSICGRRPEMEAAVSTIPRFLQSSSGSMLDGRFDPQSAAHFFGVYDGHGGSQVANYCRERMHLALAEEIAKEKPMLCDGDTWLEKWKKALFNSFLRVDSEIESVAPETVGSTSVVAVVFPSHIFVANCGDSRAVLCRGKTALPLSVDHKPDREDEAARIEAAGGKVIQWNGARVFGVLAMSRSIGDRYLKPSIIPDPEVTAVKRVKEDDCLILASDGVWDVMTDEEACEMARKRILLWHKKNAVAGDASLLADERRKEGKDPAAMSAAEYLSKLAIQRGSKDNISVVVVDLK
E128K: 22.3%
R98V: -0.461%
V118F: 4.28%
A158R: 1.02%
Y141W: -6.2%
A84E: 22.4%
I12L: 0.57%
E14P: -2.19%
L94D: -3.78%
T73N: 11.4%
E139G: 0.769%
P50G: 0.972%
V142E: 3.56%
T106L: 49.5%
V76R: -1.35%

Block 5 — method: universal PBM; form: double-stranded DNA, one strand shown; medium: in vitro; concentration: 600 nM; reading: higher = stronger binding; quantity: E-score
Target: Sal-like protein 4, full length isoform A (SALL4, Homo sapiens, UniProt Q9UJQ4, residues 1-1053)
UniProt Q9UJQ4, sequence (whole entry, looked up): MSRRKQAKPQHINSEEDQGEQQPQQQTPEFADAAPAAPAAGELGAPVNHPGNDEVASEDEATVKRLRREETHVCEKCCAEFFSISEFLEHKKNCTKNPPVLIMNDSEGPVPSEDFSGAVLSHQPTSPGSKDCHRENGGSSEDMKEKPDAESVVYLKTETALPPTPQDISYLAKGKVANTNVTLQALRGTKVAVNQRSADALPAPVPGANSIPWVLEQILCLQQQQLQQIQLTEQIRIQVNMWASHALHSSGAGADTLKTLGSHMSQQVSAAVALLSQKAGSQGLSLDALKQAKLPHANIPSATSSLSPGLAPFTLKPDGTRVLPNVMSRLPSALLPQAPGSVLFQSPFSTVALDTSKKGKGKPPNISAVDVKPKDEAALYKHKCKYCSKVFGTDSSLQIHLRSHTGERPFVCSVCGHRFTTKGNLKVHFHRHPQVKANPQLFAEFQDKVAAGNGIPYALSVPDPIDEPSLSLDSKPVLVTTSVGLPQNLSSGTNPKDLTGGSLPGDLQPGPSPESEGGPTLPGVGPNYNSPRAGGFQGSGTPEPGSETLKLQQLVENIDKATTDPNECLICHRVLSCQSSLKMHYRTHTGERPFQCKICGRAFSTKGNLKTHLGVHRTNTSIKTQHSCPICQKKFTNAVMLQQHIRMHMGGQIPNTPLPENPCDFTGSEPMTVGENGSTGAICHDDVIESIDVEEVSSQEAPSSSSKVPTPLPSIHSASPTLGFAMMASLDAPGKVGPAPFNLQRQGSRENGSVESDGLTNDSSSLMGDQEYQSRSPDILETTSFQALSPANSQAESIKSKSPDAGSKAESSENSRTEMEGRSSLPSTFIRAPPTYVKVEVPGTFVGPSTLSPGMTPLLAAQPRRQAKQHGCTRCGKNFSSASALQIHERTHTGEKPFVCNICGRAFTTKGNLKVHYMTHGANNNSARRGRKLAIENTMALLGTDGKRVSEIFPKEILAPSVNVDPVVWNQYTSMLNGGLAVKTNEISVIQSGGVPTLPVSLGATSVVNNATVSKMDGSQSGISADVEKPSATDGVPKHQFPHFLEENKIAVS
Setting: 8-mer, flanks averaged, mean of replicates
ACACTTTG: 0.149
AAGGCCAT: -0.0446
CCGACATA: 0.047
ACGCCGAT: -0.176
CCCCAATA: 0.13
CCACCCCC: -0.303
CTATAAAG: 0.227
AACGGTGT: -0.0129
GTAACAAC: 0.0714
ATCTGACA: 0.0431
AGGTAGGG: -0.0571
CGCGTAGA: -0.115
CTAAGGCA: -0.0651
CGCTTCTA: -0.0817
ACGTTGCT: -0.00835
CAAGTCTC: -0.143
AGAGCGTG: -0.165
ATTCTTCG: 0.0838

For quick reference, copied from above (block 2):
GCCAAAUACGUCUGGGCAGCCACGGCCGGGGGCGUCUUUCAGAGCAUUACGCCAAUAGAAAUAGAUAUGAUUGUAGGAAAAGACCGGGAAGGUUUCUUUACCAACGGUUUGACUCUUGGC: 0.743 ratio
GGGCAGUUUGCUUUCCAUGUUGGUCUUCCUGCAAAAUCUGGAGUUGCUGGGGGCAUUCUUUUAGUUGUCCCCAAUGUUAUGGGUAUGAUGUGCUGGUCUCCUCCUCUGGAUAAGAUGGGC: 0.535 ratio
GGGAUCACUCCGUCGCACCCACCAUGAUGGAAGACGACGGACAGCCCCGGACUCUAUACGUAGGUAACCUCUCCAGAGAUGUGACAGAAGUCCUUAUUCUUCAGUUAUUCAGUCAGAUCG: 0.0549 ratio
ACGUCAGAUGACCUGACUGUUGUAGAUGCAGCUUCACUAAGACGACAGAUAAUCAAACUAAAUAGACGUCUACAACUUCUGGAAGAGGAGAACAAAGAACGUGCUAAAAGAGAAAUGGUC: 0.173 ratio
GCUGAAAAUAAAGUGGACAUUUUAGAAAUGCUACAGAAAGCCAAAGUAGAUUUAAAACCUCUUCUUUCUAGCCUUUCUGCAAAUAAAGAAAAACUUAAGGAGAGCUCACAUUCAGGGGUU: 0.313 ratio
GGUGGUGCCACACGAAUCCCUGCAGUGAAAGAGAAGAUCAGCAAGUUUUUUGGUAAAGAACUCAGCACAACAUUAAAUGCAGAUGAAGCUGUCACUCGAGGCUGUGCUCUGCAGUGUGCA: 0.323 ratio
GGAUAAUCCAGAGAGGUUAAUCUAUCUUUAUUAUCAUAAAGCAUUGAUGGAGUAGUCACUCUGUAAUUGCCAAUACUGAAUAUGAGAAAUAUUUGGUAAAUUUUGUUUAAUUUUUUGCUA: 0.133 ratio
